Assay results from different studies.
Lines come from different studies, so protocols differ. Values joined by “and” are separate records of one study, mostly repeats; a detail may differ. ± marks the error that the study gave.
Chymotrypsinogen A: Chymotrypsinogen A (Bos taurus, UniProt P00766)
ache: Acetylcholinesterase (ache, Electrophorus electricus, UniProt O42275)
Chain of UniProt O42275 (whole entry, looked up): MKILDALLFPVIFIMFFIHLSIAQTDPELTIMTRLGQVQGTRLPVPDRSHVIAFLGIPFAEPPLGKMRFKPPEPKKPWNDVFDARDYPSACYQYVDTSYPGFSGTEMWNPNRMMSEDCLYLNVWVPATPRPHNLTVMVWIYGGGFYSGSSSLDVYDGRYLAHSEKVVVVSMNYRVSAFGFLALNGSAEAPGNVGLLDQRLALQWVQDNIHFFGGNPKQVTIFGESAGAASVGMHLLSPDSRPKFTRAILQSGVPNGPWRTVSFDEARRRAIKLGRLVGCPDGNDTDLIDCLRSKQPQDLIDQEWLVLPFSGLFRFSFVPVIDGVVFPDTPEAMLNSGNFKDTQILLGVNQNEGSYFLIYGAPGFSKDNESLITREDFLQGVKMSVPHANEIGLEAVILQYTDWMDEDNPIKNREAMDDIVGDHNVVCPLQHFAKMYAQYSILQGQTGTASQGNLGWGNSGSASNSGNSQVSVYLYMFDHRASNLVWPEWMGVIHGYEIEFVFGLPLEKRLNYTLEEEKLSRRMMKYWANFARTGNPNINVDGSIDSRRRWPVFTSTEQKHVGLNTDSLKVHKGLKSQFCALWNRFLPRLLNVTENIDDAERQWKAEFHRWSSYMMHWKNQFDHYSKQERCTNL
OPRK1: Kappa-type opioid receptor (OPRK1, Homo sapiens, UniProt P41145)
Chain of UniProt P41145 (whole entry, looked up): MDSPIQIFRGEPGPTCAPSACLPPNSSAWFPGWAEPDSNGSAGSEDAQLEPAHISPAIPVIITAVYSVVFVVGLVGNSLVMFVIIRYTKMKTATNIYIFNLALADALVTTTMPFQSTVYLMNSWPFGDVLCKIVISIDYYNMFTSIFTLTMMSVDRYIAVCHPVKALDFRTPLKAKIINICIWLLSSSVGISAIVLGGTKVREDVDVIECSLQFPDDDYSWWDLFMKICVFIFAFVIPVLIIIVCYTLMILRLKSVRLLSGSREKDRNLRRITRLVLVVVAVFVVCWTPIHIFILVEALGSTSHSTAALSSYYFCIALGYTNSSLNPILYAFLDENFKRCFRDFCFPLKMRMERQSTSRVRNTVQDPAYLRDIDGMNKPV
CNR2: Cannabinoid receptor 2 (CNR2, Homo sapiens, UniProt P34972)
Chain of UniProt P34972 (whole entry, looked up): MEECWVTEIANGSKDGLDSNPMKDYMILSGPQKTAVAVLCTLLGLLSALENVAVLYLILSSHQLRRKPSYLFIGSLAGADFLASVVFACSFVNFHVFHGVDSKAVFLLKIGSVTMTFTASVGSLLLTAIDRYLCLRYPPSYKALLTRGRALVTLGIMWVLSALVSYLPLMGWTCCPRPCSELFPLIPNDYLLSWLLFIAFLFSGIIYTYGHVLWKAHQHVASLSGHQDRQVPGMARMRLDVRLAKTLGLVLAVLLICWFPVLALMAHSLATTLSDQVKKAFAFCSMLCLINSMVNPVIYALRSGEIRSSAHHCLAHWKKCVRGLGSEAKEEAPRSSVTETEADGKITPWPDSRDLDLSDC
SLC6A3: Sodium-dependent dopamine transporter (SLC6A3, Homo sapiens, UniProt Q01959)
Chain of UniProt Q01959 (whole entry, looked up): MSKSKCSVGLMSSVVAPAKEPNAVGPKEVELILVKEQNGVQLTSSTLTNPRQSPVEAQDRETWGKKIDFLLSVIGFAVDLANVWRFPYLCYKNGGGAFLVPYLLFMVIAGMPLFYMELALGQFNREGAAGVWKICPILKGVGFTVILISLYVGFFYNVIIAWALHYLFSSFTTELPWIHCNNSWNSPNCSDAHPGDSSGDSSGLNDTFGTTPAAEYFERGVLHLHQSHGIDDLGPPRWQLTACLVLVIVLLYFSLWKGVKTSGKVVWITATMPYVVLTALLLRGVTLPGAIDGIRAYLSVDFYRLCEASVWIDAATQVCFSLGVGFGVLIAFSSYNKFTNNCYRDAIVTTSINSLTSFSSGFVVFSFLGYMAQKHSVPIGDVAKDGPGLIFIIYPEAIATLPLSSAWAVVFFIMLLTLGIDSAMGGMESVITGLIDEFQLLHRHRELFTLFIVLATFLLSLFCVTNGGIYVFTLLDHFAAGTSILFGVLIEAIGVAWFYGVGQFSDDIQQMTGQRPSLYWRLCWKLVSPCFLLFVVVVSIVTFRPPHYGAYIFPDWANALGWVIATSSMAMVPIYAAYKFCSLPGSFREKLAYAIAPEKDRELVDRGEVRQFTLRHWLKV
SIGMAR1: Sigma non-opioid intracellular receptor 1 (SIGMAR1, Homo sapiens, UniProt Q99720)
Chain of UniProt Q99720 (whole entry, looked up): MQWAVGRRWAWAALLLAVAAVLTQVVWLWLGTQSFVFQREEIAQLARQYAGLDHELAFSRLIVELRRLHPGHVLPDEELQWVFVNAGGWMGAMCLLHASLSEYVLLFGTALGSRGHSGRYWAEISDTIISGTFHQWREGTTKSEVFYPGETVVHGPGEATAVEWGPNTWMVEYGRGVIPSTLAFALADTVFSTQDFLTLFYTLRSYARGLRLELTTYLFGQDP
Chain of UniProt P33913 (whole entry, looked up): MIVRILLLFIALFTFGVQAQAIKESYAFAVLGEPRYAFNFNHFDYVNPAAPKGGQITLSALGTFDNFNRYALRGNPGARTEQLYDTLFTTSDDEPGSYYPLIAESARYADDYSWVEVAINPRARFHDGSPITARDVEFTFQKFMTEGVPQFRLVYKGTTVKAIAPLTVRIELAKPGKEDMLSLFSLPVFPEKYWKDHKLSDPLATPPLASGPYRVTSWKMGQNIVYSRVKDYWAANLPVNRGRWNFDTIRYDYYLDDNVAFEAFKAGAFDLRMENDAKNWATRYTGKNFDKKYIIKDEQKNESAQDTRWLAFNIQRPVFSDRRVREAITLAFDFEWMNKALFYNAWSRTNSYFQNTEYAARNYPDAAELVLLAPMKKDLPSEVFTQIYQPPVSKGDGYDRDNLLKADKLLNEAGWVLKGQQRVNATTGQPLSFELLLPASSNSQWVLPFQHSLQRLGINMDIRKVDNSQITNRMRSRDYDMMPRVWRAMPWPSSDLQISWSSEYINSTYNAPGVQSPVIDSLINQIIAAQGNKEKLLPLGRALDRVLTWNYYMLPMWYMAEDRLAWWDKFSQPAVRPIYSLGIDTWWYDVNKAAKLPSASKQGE
Chain of UniProt P22413 (whole entry, looked up): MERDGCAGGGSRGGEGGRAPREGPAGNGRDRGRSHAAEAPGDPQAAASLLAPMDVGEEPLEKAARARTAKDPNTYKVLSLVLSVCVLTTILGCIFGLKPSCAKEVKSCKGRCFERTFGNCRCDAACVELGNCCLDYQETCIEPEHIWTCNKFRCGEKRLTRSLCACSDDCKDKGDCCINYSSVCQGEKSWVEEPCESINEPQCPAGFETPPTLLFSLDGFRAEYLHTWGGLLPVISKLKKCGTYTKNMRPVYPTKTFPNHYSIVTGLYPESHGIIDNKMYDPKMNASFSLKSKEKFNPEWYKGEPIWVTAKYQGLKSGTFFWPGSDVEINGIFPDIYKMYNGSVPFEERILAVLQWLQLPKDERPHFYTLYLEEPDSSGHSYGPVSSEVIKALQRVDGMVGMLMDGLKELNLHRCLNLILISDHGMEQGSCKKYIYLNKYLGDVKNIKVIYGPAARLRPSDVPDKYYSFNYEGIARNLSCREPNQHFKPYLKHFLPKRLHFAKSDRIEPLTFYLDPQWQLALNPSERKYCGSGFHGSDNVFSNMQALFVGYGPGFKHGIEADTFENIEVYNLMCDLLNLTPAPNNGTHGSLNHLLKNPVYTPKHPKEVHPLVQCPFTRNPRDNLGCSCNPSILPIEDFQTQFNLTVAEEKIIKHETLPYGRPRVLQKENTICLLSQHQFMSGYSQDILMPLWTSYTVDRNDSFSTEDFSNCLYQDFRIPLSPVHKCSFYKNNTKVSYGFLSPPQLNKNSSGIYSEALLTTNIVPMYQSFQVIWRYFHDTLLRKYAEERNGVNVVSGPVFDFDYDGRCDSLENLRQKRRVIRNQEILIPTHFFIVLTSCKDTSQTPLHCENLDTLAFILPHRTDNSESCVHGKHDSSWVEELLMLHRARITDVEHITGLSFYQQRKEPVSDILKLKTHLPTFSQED
Chain of UniProt Q86X55 (whole entry, looked up): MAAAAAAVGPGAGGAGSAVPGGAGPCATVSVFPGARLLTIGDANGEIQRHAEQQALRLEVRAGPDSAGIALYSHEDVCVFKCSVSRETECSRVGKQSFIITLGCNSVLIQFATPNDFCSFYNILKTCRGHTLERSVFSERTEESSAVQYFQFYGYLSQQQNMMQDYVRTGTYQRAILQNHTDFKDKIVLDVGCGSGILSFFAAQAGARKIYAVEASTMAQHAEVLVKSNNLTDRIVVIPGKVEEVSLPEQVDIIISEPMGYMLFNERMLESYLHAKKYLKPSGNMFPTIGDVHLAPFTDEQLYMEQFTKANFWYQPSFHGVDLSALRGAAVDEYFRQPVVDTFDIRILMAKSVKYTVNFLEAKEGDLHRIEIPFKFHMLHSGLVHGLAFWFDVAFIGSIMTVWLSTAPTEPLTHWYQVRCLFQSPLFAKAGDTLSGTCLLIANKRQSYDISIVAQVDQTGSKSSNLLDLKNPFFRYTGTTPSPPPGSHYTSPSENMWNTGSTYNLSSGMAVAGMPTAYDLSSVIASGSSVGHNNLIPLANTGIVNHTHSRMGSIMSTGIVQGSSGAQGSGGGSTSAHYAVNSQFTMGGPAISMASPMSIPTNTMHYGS
Chain of UniProt P23975 (whole entry, looked up): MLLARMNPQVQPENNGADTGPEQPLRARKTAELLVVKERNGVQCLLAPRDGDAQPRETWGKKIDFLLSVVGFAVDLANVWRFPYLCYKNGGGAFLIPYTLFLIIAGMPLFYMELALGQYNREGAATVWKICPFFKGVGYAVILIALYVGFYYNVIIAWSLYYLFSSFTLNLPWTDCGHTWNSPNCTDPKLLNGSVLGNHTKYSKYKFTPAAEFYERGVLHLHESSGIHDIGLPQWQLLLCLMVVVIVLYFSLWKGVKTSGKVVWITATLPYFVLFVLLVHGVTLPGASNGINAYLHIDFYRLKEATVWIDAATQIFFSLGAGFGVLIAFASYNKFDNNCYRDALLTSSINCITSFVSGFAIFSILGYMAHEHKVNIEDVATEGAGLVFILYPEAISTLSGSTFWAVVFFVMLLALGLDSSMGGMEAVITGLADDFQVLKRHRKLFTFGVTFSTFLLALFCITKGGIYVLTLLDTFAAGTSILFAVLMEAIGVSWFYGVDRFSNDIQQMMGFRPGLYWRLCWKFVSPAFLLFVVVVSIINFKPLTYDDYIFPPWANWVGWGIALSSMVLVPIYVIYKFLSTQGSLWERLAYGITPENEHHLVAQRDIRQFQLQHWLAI

Structure (SMILES)	tested on	assay	system	conditions	how to read	measurement	value
Cc1ccc(OCCN(C)C)cc1C(=O)N[C@H](C)c1cc(-c2cnn(CC(C)(C)O)c2)nc2ccccc12	Vero E6	–	–	7.812 µM	–	viability	101% and 111%
CC(=O)c1cccc(/N=N/c2cccc([B-](F)(F)F)c2)c1	Chymotrypsinogen A	enzyme activity, competitive inhibitor	buffer with 2 vol% DMSO	pH 7.81, 25 °C, thermally adapted trans state, together with: Suc-AAPF-AMC	–	Ki	219 µM
O=S(=O)(N/N=C/c1ccc(OS(=O)(=O)c2ccc(Cl)cc2)cc1)c1ccc(Cl)cc1	ache	enzyme activity, inhibitor, Ellman	–	–	–	Ki	0.0362 µM
CC(C)(C)C(=O)OCOP(=O)(OCOC(=O)C(C)(C)C)C1CCCN(O)C1=O (stereo not shown)	Malme-3M	–	–	–	–	CC50	> 100 µM
O=S(=O)(N/N=C/c1ccc(OS(=O)(=O)c2ccc(Br)cc2)cc1)c1ccc(Cl)cc1	ache	enzyme activity, inhibitor, Ellman	–	–	–	Ki	0.0148 µM
CN(CC1CC1)[C@H]1COC[C@H]2NCCN(C(=O)Cc3ccc(Cl)c(Cl)c3)[C@@H]21 (relative stereo)	OPRK1	cell-free assay	–	–	–	Ki	0.21 µM
Cc1ccccc1/N=N/c1cccc([B-](F)(F)F)c1	Chymotrypsinogen A	enzyme activity, inhibitor	–	pH 7.81, 25 °C, cis-enriched photostationary state, together with: Suc-AAPF-AMC	–	Ki	63.6 µM
CC(C)[C@@H](Nc1nc(Cl)nc2c1ncn2[C@H]1[C@H](O)[C@H](O)[C@]2(CF)C[C@H]12)C1CC1	ADORA1 (Homo sapiens, UniProt P30542)	ligand displacement, radioligand	–	–	–	Ki	0.00984 µM
CC(C)C[C@H](NC(=O)[C@H](CCCCN)NC(=O)[C@H](CCCCN)NC(=O)Cc1cccc(CNC(=O)[C@@H](C)NC(=N)N)c1)B(O)O	Neutrophil elastase (ELANE, Homo sapiens, UniProt P08246)	enzyme activity, inhibitor, fluorescence	–	–	–	Ki	~1 µM
O=c1ccn([C@@H]2O[C@H](CO[P@](O)(=S)OP(=O)(O)OP(=O)(O)O)[C@@H](O)[C@H]2O)c(=S)[nH]1	ENPP1 (Homo sapiens, UniProt P22413)	enzyme activity, inhibitor	–	–	–	Ki	0.109 µM
CCCCCn1ccc(C(=O)NC(C)(C)c2ccc(NC(C)=O)cc2)n1	CNR2	ligand displacement, radioligand	–	–	–	Ki	1.75 µM
COc1ccc(S(=O)(=O)Oc2ccc(/C=N/NS(=O)(=O)c3cc(Cl)ccc3Cl)cc2)cc1	ache	enzyme activity, inhibitor, Ellman	–	–	–	Ki	0.0241 µM
CN(C)[C@H]1C[C@@]23CC[C@@]4(O2)C(=CC[C@]2(C)[C@@H](c5ccc6ccncc6c5)CC[C@H]24)C=C3[C@@H](O)[C@@H]1O	PIK3CG (Homo sapiens, UniProt P48736)	ATP probe labelling, inhibitor, KiNativ profiling	–	0.1 µM	–	inhibition	-12.4%
O=C1c2ccccc2CCCN1CCCCN1CCN(c2cccc(Cl)c2Cl)CC1	HTR7 (Homo sapiens, UniProt P34969)	ligand displacement, radioligand	–	–	–	Ki	0.02 µM
Cc1cc(C(=O)Nc2nc3cccc(C)c3n2[C@H]2CCCCN(C(=O)/C=C/CN(C)C)C2)ccn1	Trypanosoma brucei brucei	–	2T1 parental	10 x EC50, 24 h	reference: time 0 h	cell growth	66.7% and 73.3% and 80%
CCCNC(=O)[C@H]1O[C@@H]1C(=O)N[C@H](C(=O)N1CCC[C@H]1C(=O)OCC1=C2C(C)=CC(C)=[N+]2[B-](F)(F)n2c(C)cc(C)c21)[C@@H](C)CC	Cathepsin B (CTSB, Homo sapiens, UniProt P07858)	irreversible inactivation, inhibitor	–	concentration not given, pH 5.5, 25 °C, in dark, together with: Z-Arg-Arg-AMC	–	Ki	94 ± 30 µM
COc1ccccc1-c1n[nH]c2nc(N[C@H]3CC[C@H](NS(=O)(=O)CC(C)C)CC3)ncc12	–	bead binding, competition bead pull-down, measured: LINJ.35.1230	Leishmania donovani extract	10 µM	reference: vehicle	relative abundance	1.1
COC(=O)[C@H]1[C@@H](c2ccc(Cl)c(Cl)c2)C[C@@H]2CC[C@H]1N2Cc1c2ccccc2c(Cl)c2ccccc12	SLC6A3	ligand displacement, radioligand	–	pH 7.4	–	Ki	0.57 µM
O=C(Cc1ccc(Cl)c(Cl)c1)N1CCNC2COCC(N3CCCC3)C21 (stereo not shown)	OPRK1	cell-free assay	–	–	–	Ki	0.045 µM
Cc1ccc2c(C(C[N+](=O)[O-])c3cccs3)c(-c3ccccc3)[nH]c2c1 (stereo not shown)	CNR1 (Homo sapiens, UniProt P21554, P394A)	G protein activation, agonist, BRET	–	–	–	EC50	0.16 µM
CC(=O)NCCCC[C@H](NC(=O)[C@H](CCCNC(=N)NCCC[C@H]1O[C@@H](n2cnc3c(N)ncnc32)[C@H](O)[C@@H]1O)NC(=O)[C@@H]1CCCN1C(=O)[C@H](C)NC(=O)[C@H](CCCCN)NC(C)=O)C(=O)N[C@@H](CCC(N)=O)C(=O)N[C@@H](CC(C)C)C(=O)N[C@@H](C)C(N)=O (relative stereo)	CARM1 (Homo sapiens, UniProt Q86X55)	enzyme activity, inhibitor	–	–	–	Ki	0.066 µM
CS(C)(=O)=Nc1ccc(-c2ccc(-c3nc4cc(O[C@@H]5CO[C@H]6[C@@H]5OC[C@H]6O)[nH]c4cc3F)cc2)cc1	ROS1 (Homo sapiens, UniProt P08922)	enzyme activity, inhibitor	–	10 µM	–	inhibition	23%
COc1cc2c(cc1O)C(CCc1ccc(Cl)cc1)N(C)CC2 (stereo not shown)	HTR3A (Homo sapiens, UniProt P46098)	cell-free assay, radioligand	–	–	–	Ki	1.1 µM

Structure (SMILES)	tested on	assay	system	conditions	how to read	measurement	value
C[C@]12COc3ccc(OCc4ccc(Cl)cc4)cc3[C@H]1CCN2	SIGMAR1	cell-free assay, radioligand	–	–	–	Ki	0.0017 µM
COC(=O)[C@H]1[C@@H](c2ccc(Cl)c(Cl)c2)C[C@@H]2CC[C@H]1N2CCOc1ccc2cc3ccccc3cc2c1	SLC6A3	ligand displacement, radioligand	–	pH 7.4	–	Ki	0.05 µM
C[C@@H](CN1CCC(Cc2ccccc2)CC1)[C@@H](O)c1ccc(O)cc1	SLC6A2 (Homo sapiens, UniProt P23975)	binding, inhibitor	–	–	–	Ki	1.25 µM
COC(=O)[C@H]1[C@@H](c2ccc(Cl)cc2)C[C@@H]2CC[C@H]1N2CCCCCCCCCCCc1c2ccccc2cc2ccccc12	SLC6A3	ligand displacement, radioligand	–	pH 7.4	–	Ki	0.051 µM
F[B-](F)(F)c1ccc(/N=N/c2ccccc2)cc1	Chymotrypsinogen A	enzyme activity, inhibitor	–	pH 7.81, 25 °C, cis-enriched photostationary state, together with: Suc-AAPF-AMC	–	Ki	443 µM
O=C1NC2(CC2)COc2ncc(F)cc2[C@H]2COCCN2c2ccn3ncc1c3n2	–	–	Sprague-Dawley rat, male, thymus	oral, 20 mg/kg/day, 4 weeks dosing, end of recovery	–	organ-to-brain weight ratio	19.8 ± 5.51%
C[C@@H](Cc1ccsc1)NC(=O)NC[C@H](Cc1ccc(O)cc1)N(C)C	DRD1 (Homo sapiens, UniProt P21728)	cell-free assay	–	–	–	Ki	32 µM
CC(C)(C)c1cc(B(O)O)cc(C(C)(C)C)c1	Beta-lactamase (ampC, Escherichia coli K-12, UniProt P00811)	enzyme activity, inhibitor, absorbance	–	together with: CENTA substrate	–	Ki	3.21 µM
CCOC(=O)C(CC)(CC)NC(=O)c1ccc(C2CC2)c(Cc2ccc(F)cc2)n1	CNR2	ligand displacement, radioligand	–	cell membranes	–	Ki	0.0002 µM
Cc1cc(O)cc(C)c1C[C@H](N)C(=O)N[C@H](CCCNC(=N)N)C(=O)N[C@@H](Cc1ccccc1)C(=O)N(C)CC(=O)N(C)Cc1cc(C(F)(F)F)cc(C(F)(F)F)c1	OPRD1 (Homo sapiens, UniProt P41143, Y129F)	–	–	–	–	Ki	0.0348 µM
Cc1cc(=O)oc2cc(OCCCCCC[Se]C#N)ccc12	CA9 (Homo sapiens, UniProt Q16790)	enzyme activity, inhibitor, stopped-flow	–	–	–	Ki	0.0458 µM
COC(=O)[C@H]1[C@@H](c2ccc(Cl)c(Cl)c2)C[C@@H]2CC[C@H]1N2CCCCCc1c2ccccc2cc2ccccc12	SLC6A3	ligand displacement, radioligand	–	pH 7.4	–	Ki	0.15 µM
CC(C)(C)c1ccc(/N=N/c2cccc([B-](F)(F)F)c2)cc1	Chymotrypsinogen A	enzyme activity, inhibitor	–	pH 7.81, 25 °C, cis-enriched photostationary state, together with: Suc-AAPF-AMC	–	Ki	> 2000 µM
CC(C)C[C@H](NC(=O)CNC(=O)[C@H](CCC(N)=O)NC(=O)[C@H](CC(C)C)NC(=O)[C@H](CC(C)C)NC(=O)[C@H](CCCNC(=N)N)NC(=O)[C@H](CCC(N)=O)NC(=O)[C@H](CC(C)C)NC(=O)[C@H](CCCNC(=N)N)NC(=O)[C@H](C)NC(=O)[C@H](CO)NC(=O)[C@H](CC(=O)O)NC(=O)[C@H](CCC(N)=O)NC(=O)[C@H](CC(C)C)NC(=O)[C@H](CCCNC(=N)N)NC(=O)[C@H](CO)NC(=O)[C@H](Cc1ccc(O)cc1)NC(=O)[C@H](CCC(=O)O)NC(=O)[C@H](Cc1ccc(C(=O)c2ccccc2)cc1)NC(=O)[C@@H](NC(=O)[C@H](Cc1ccccc1)NC(=O)[C@@H](NC(=O)CNC(=O)[C@H](CC(=O)O)NC(=O)[C@H](CO)NC(=O)[C@@H](N)Cc1c[nH]cn1)[C@@H](C)O)[C@@H](C)O)C(=O)N[C@H](C(N)=O)C(C)C	Sctr (Rattus norvegicus, UniProt P23811)	ligand displacement in cells, radioligand	–	–	–	Ki	> 1 µM
CN(C)[C@H](CNC(=O)/C=C/c1cccc2ccccc12)Cc1ccc(O)cc1	DRD5 (Homo sapiens, UniProt P21918)	cell-free assay	–	–	–	Ki	1.7 µM
Fc1cccc(F)c1/N=N/c1cccc([B-](F)(F)F)c1	Chymotrypsinogen A	enzyme activity, competitive inhibitor	buffer with 2 vol% DMSO	pH 7.81, 25 °C, thermally adapted trans state, together with: Suc-AAPF-AMC	–	Ki	32 µM
CC[C@H](C)[C@H](NC(=O)[C@H](CCCNC(=N)N)NC(=O)[C@H](CCCNC(=N)N)NC(=O)[C@H](CC(C)C)NC(=O)[C@H](Cc1ccccc1)NC(=O)CNC(=O)CNC(=O)[C@@H](N)Cc1ccc(O)cc1)C(=O)N[C@@H](CCCNC(=N)N)C(=O)N1CCC[C@H]1C(=O)N[C@@H](CCCCN)C(=O)N[C@@H](CC(C)C)C(=O)N[C@@H](CCCCN)C(=O)N[C@@H](Cc1c[nH]c2ccccc12)C(=O)N[C@@H](CC(=O)O)C(=O)N[C@@H](CC(N)=O)C(=O)N[C@@H](CCC(N)=O)C(=O)O	GPR139 (Homo sapiens, UniProt Q6DWJ6)	ligand displacement, radioligand	–	cell membranes	–	Ki	0.0177 µM
CC(C)c1ccccc1/N=N/c1cccc([B-](F)(F)F)c1	Chymotrypsinogen A	enzyme activity, inhibitor	–	pH 7.81, 25 °C, cis-enriched photostationary state, together with: Suc-AAPF-AMC	–	Ki	74.1 µM
CSCC[C@H](NC=O)C(=O)N[C@@H](CCCNC(=N)N)C(=O)N[C@H](C(=O)NCC(=O)N[C@@H](CC(N)=O)C(=O)N[C@@H](C)C(=O)N[C@@H](CC(N)=O)C(=O)O)[C@@H](C)O	Uncharacterized protein YejA (yejA, Escherichia coli, UniProt P33913)	binding, competition fluorescence polarization	–	–	–	Ki	~0.12 µM and 0.12 µM
Cc1c(/N=N/c2ccccc2)cccc1[B-](F)(F)F	Chymotrypsinogen A	enzyme activity, inhibitor	–	pH 7.81, 25 °C, cis-enriched photostationary state, together with: Suc-AAPF-AMC	–	Ki	352 µM
COc1ccccc1-c1n[nH]c2nc(NC3CCN(C(=O)Cc4ccc(F)cc4F)CC3)ncc12	–	bead binding, competition bead pull-down, measured: LINJ.35.3390	Leishmania donovani axenic amastigote extract	10 µM	reference: vehicle	relative abundance	0.92
O=C(O)c1ccc(/N=N/c2cccc([B-](F)(F)F)c2)cc1	Chymotrypsinogen A	enzyme activity, competitive inhibitor	buffer with 2 vol% DMSO	pH 7.81, 25 °C, thermally adapted trans state, together with: Suc-AAPF-AMC	–	Ki	78.7 µM
C[C@@H](Oc1ccc2c(c1)[C@H]1CCN[C@@]1(C)CO2)c1ccccc1	SIGMAR1	cell-free assay, radioligand	–	–	–	Ki	0.0019 µM

Some of these lines once more:
Structure (SMILES)	tested on	assay	system	conditions	how to read	measurement	value
O=C(Cc1ccc(Cl)c(Cl)c1)N1CCNC2COCC(N3CCCC3)C21 (stereo not shown)	OPRK1	cell-free assay	–	–	–	Ki	0.045 µM
Cc1ccc2c(C(C[N+](=O)[O-])c3cccs3)c(-c3ccccc3)[nH]c2c1 (stereo not shown)	CNR1 (Homo sapiens, UniProt P21554, P394A)	G protein activation, agonist, BRET	–	–	–	EC50	0.16 µM
CC(=O)NCCCC[C@H](NC(=O)[C@H](CCCNC(=N)NCCC[C@H]1O[C@@H](n2cnc3c(N)ncnc32)[C@H](O)[C@@H]1O)NC(=O)[C@@H]1CCCN1C(=O)[C@H](C)NC(=O)[C@H](CCCCN)NC(C)=O)C(=O)N[C@@H](CCC(N)=O)C(=O)N[C@@H](CC(C)C)C(=O)N[C@@H](C)C(N)=O (relative stereo)	CARM1 (Homo sapiens, UniProt Q86X55)	enzyme activity, inhibitor	–	–	–	Ki	0.066 µM
CS(C)(=O)=Nc1ccc(-c2ccc(-c3nc4cc(O[C@@H]5CO[C@H]6[C@@H]5OC[C@H]6O)[nH]c4cc3F)cc2)cc1	ROS1 (Homo sapiens, UniProt P08922)	enzyme activity, inhibitor	–	10 µM	–	inhibition	23%
COc1cc2c(cc1O)C(CCc1ccc(Cl)cc1)N(C)CC2 (stereo not shown)	HTR3A (Homo sapiens, UniProt P46098)	cell-free assay, radioligand	–	–	–	Ki	1.1 µM
C[C@]12COc3ccc(OCc4ccc(Cl)cc4)cc3[C@H]1CCN2	SIGMAR1	cell-free assay, radioligand	–	–	–	Ki	0.0017 µM
COC(=O)[C@H]1[C@@H](c2ccc(Cl)c(Cl)c2)C[C@@H]2CC[C@H]1N2CCOc1ccc2cc3ccccc3cc2c1	SLC6A3	ligand displacement, radioligand	–	pH 7.4	–	Ki	0.05 µM
